Measurements collected from several papers.
Lines come from different studies, so protocols differ. Several values in a cell are separate wells, animals, samples, runs or records. ± gives the spread as reported.
MPO mature: MPO mature (Homo sapiens, UniProt P05164)
NR1H3: Oxysterols receptor LXR-alpha (NR1H3, Homo sapiens, UniProt Q13133)
KPC-2: KPC-2 (Klebsiella pneumoniae, UniProt Q9F663)
T1: AfsR 1-980 (Streptomyces avermitilis); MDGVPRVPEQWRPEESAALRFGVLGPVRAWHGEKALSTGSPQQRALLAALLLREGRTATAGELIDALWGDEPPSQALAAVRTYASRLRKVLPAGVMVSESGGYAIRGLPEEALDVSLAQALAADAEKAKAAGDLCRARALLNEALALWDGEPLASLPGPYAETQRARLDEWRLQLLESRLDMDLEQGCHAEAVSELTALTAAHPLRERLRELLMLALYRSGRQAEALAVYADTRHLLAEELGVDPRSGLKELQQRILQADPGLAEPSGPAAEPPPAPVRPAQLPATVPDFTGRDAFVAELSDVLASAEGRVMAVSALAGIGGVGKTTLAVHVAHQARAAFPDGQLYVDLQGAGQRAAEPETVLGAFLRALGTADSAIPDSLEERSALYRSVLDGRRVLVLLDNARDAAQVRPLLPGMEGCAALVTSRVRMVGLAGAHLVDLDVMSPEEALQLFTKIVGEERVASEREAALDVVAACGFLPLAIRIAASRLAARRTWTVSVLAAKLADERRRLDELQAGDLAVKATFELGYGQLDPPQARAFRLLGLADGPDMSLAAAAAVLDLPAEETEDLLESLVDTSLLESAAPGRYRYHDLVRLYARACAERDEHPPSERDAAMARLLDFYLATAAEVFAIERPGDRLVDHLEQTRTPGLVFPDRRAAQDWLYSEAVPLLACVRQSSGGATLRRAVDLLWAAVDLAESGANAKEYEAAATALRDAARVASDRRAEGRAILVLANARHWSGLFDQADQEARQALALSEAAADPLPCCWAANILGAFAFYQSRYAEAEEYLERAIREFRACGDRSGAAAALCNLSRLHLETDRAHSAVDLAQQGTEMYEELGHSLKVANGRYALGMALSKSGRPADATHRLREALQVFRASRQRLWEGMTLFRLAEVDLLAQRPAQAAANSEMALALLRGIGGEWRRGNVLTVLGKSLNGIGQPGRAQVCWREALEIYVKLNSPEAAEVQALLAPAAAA
B1: blaNDM-1 39-270 (Klebsiella pneumoniae, UniProt C7C422); chain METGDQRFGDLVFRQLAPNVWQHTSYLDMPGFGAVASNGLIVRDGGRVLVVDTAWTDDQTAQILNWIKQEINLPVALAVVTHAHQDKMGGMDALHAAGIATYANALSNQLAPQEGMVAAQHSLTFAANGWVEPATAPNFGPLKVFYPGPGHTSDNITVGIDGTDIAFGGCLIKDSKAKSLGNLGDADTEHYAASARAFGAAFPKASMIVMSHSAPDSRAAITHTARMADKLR
B2: PduA 2-94 (Salmonella enterica, UniProt P0A1C7); chain QQEALGMVETKGLTAAIEAADAMVKSANVMLVGYEKIGSGLVTVIVRGDVGAVKAATDAGAAAARNVGEVKAVHVIPRPHTDVEKILPKGISQ

| Substance | target or system | assay | system | conditions | how to read | measurement | result |
| --- | --- | --- | --- | --- | --- | --- | --- |
| HVLVMSATRR |  |  | peptide, C57BL/6J mice, male, serum | subcutaneous osmotic pump, 3 mg/kg/day peptide basis, 8 weeks |  | ALT | 26 U/L and 165 U/L and 62 U/L |
| SPIN mature (Staphylococcus aureus) | MPO mature | MPO peroxidase activity, inhibitor |  | L49A variant |  | IC50 | 7.4 nM |
| Ivermectin | NR1H3 | receptor activity, inhibitor | cells |  |  | IC50 | 6030 ± 4390 nM |
| SPIN mature L49A/E52A (Staphylococcus aureus) | MPO mature | MPO peroxidase activity, inhibitor |  | L49A variant |  | IC50 | 268 nM |
| AIP1 mature, cyclic thiolactone ring (Staphylococcus aureus) | agrC (Staphylococcus aureus) | competition with FITC-AIP1, competitor, flow cytometry | S. aureus | 1 µM, wild-type, unlabelled synthetic AIP1 | relative to: no unlabelled competitor, higher = more inhibition | FITC-AIP1 binding inhibition | 50% |
| aspterric acid |  | root length | Arabidopsis thaliana Col-0 seeds | 6.25 µg/mL, 7 days, dark |  | inhibition | 89.3% |
| insulin human |  | item: QSER1 mRNA | uninfected mouse, brain | i.p., dose not given | relative to: PBS | fold change | 1.2 |
| PR2 C-terminal nonapeptide fragment (HIV-2) | HIV-2 protease mature (HIV-2) | hydrolysis of chromogenic substrate, competitive inhibitor, enzyme inhibition kinetics |  |  |  | Ki | 17000 nM |
| glucagon |  | ELISA | human, type 1 diabetes, femoral artery plasma | dose not given, baseline, together with: insulin 0.5 mU/kg/min |  | arterial plasma concentration | 12.6 ± 1.8 pg/mL |
| B1 (blaNDM-1 39-270) | prc K477A (Escherichia coli, UniProt P23865) | SEC |  |  |  | binding | binds |
| NS5A fragment (hepatitis C virus) | PPIA H126Q (Homo sapiens) | AlphaScreen |  | H126Q | relative to: GST-CypA RLU, higher = stronger interaction | signal over GST-CypA | 2.7 fold |
| RNA 1 AACAAAACAAAAUAGCACCGUAAAGC / RNA 2 GCUUUACGGUGCUA (dsRNA; 14 bp duplex, 5' 12 nt overhang) | DEAD-box ATP-dependent RNA helicase RhpA (Pseudomonas aeruginosa, UniProt Q9HX66) | fluorescence polarization | double-stranded RNA | together with: AMP-PNP 1 mM |  | Kd | 2.2 nM |
| CDYYAYATFGFTSAAADAKVC (MBP/BLIP cyclic peptide (Streptomyces clavuligerus); cyclic) | TEM-1 β-lactamase (UniProt P62593) | SPR | peptide |  |  | koff | 0.00053 s⁻¹ |
| eutC (Salmonella enterica, UniProt P19265) | eutA (Salmonella enterica, UniProt Q9ZFV2) | cross-linking |  |  |  | binding | binds |
| gag CA CTD fragment I190V (Rous sarcoma virus) | itself | ITC |  |  |  | Kd | 40000 ± 10000 nM |
| CHLWFTDGVLC (BLIP cyclic peptide (Streptomyces clavuligerus); C-terminal amide, cyclic, disulfide) | KPC-2 | BLI | peptide |  |  | Kd | 410 ± 7 nM |
| AGAENCETGGSFGDSIHCRGHAAGDYYAY (bli 61-89 (Streptomyces clavuligerus, UniProt P35804)) | TEM-1 β-lactamase mature (UniProt P62593) | BLI | peptide |  |  | Kd | 1200 nM |
| CWSEYYPAYC (BLIP cyclic peptide (Streptomyces clavuligerus); C-terminal amide, cyclic, disulfide) | KPC-2 | BLI | peptide |  |  | koff | 0.00035 s⁻¹ |
| NS5A mature (hepatitis C virus, UniProt Q9WMX2) | PPIA (Homo sapiens, UniProt P62937) | luciferase, two-hybrid | CHO |  | relative to: VP16 alone, higher = stronger interaction | specific window | 2.9 fold |
| CDGYSSTGFYRGSAHLWFC (MBP/BLIP cyclic peptide (Streptomyces clavuligerus); cyclic) | KPC-2 | SPR | peptide |  |  | Kd | 2100 ± 230 nM |
| SNLNTDMGNGIASNRWINYQQFIQTLEKAIEQHRLQLTQWTQKVDLALKSW (fliJ 51-101 (Salmonella enterica, UniProt P0A1K1)) | fliT 1-95 (Salmonella enterica, UniProt P0A1N2) | solution NMR structure |  |  |  | binding | binds |
| SPIN mature E52A (Staphylococcus aureus) | MPO mature | MPO peroxidase activity, inhibitor |  | L49A variant |  | IC50 | 64.4 nM |
| B2 (PduA 2-94) | PduB (Salmonella enterica Typhimurium LT2, UniProt P37449) | cross-linking |  |  |  | binding | binds |
| GCGGAAGGCGGCTGACCAGAGGGCCCTGCAAGAAACCAGCATAGCGGTTTGTTTGTGGCGCCCGTCACCACTTCGCCGACGCGGTACCCCCGGAGGCCAGGCACCGGTCACTGCCGCCGCCCGCGCTGCCCGCTGCCGCCGCCGAGCCGTACCGCGCGGCTCGGGCGTCGCGCATGCCGTCAGGCCCCCGGCACCTCCCTG (dsDNA) | T1, AfsR 1-980 (Streptomyces avermitilis) | EMSA | double-stranded DNA, one strand shown |  |  | binding | no binding |
| tetrahydrofolate | Serine hydroxymethyltransferase, mitochondrial (SHMT2, Homo sapiens, UniProt P34897) | substrate, MTHFD2-coupled NADH fluorescence |  | together with: serine 200 mM |  | Km | 108 µM |
| CAIAGGYFHGLALKGC (BLIP-II cyclic peptide (Streptomyces); C-terminal amide, cyclic, disulfide) | KPC-2 | BLI | peptide |  |  | koff | 0.00029 s⁻¹ |
| abamectin | NR1H3 | receptor activity, inhibitor | cells |  |  | IC50 | 6220 ± 7170 nM |

Excerpt of the above:
| Substance | target or system | assay | system | conditions | how to read | measurement | result |
| --- | --- | --- | --- | --- | --- | --- | --- |
| CWSEYYPAYC (BLIP cyclic peptide (Streptomyces clavuligerus); C-terminal amide, cyclic, disulfide) | KPC-2 | BLI | peptide |  |  | koff | 0.00035 s⁻¹ |
| glucagon |  | ELISA | human, type 1 diabetes, femoral artery plasma | dose not given, baseline, together with: insulin 0.5 mU/kg/min |  | arterial plasma concentration | 12.6 ± 1.8 pg/mL |
| GCGGAAGGCGGCTGACCAGAGGGCCCTGCAAGAAACCAGCATAGCGGTTTGTTTGTGGCGCCCGTCACCACTTCGCCGACGCGGTACCCCCGGAGGCCAGGCACCGGTCACTGCCGCCGCCCGCGCTGCCCGCTGCCGCCGCCGAGCCGTACCGCGCGGCTCGGGCGTCGCGCATGCCGTCAGGCCCCCGGCACCTCCCTG (dsDNA) | T1, AfsR 1-980 (Streptomyces avermitilis) | EMSA | double-stranded DNA, one strand shown |  |  | binding | no binding |
